Measured values pooled from the literature.
Parts stem from different laboratories: compare values within a part only. Changes are numbered by the printed parent chain.
Chain of UniProt Q9P1W9 (whole entry, looked up): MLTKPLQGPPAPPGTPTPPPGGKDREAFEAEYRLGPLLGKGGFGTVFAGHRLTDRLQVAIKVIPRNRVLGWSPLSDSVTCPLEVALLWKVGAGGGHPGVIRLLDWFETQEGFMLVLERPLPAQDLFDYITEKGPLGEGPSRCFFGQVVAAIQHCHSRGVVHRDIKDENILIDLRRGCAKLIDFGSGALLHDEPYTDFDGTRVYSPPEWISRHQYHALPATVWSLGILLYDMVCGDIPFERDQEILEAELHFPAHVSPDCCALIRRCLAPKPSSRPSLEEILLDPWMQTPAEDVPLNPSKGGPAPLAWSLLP

Study 1 — target: CCNB3, cyclin fold, Cln2 fusion (human); technique: yeast growth competition, sequencing; medium: yeast; setting: strong parent motif; baseline: not given; direction: higher = stronger binding; starting sequence: viral docking peptide; TSVRRALFTGGSD
Change | normalised enrichment score
TSVRKALFTGGSD [R5K] | 0.95
TSVRRALFTIGSD [G10I] | 1.56
TSVRRATFTGGSD [L7T] | 0.147
TSVFRALFTGGSD [R4F] | 0.835
TSVRRALFTYGSD [G10Y] | 1.4
TSVRRALFTGYSD [G11Y] | 1.63
TKVRRALFTGGSD [S2K] | 1.77
TSVRRPLFTGGSD [A6P] | 0.258

Study 2 — target: inorganic phosphate, free oxyanion; technique: microfluidic competitive inhibition; medium: in vitro, cell-free expressed; concentration: not given; direction: lower = stronger binding
Setting: derived from inhibition constants, unchanged parent 615000 nM
Starting sequence: PafA, mature enzyme, eGFP fusion (Elizabethkingia meningoseptica, UniProt Q9KJX5); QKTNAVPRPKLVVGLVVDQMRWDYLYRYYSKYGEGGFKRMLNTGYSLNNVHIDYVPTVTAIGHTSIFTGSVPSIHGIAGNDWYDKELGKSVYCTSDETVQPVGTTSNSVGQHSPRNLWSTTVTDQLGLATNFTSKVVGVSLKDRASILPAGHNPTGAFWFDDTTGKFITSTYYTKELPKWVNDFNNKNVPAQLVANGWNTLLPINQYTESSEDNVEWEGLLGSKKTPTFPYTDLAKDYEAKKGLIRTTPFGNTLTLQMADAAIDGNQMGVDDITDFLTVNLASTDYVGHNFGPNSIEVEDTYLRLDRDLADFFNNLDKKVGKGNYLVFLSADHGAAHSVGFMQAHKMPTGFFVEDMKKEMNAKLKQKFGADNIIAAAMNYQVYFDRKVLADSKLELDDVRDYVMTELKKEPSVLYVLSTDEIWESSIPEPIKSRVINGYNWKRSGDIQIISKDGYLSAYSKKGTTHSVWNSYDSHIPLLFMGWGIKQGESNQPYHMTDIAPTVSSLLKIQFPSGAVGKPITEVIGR
Change | phosphate dissociation constant [µM]
W22G | 385
N294V | 442
D275V | 499
N4V | 654
K241V | 618
L221V | 585
G323V | 627
Y24G | 689

Further values, each from its own experiment
Molecule | tested on | assay | test system | conditions | how to read | measurement | result
TAPFYPPAYEIQVFK |  | Ni-NTA bead binding, phage display NGS | peptide, phage-displayed 15-mer library | concentration not given, added: Ni-NTA beads 20 µL | baseline: input library | enrichment fold change | 0.737
COC[C@H]1OC(=O)c2coc3c2[C@@]1(C)C1=C(C3=O)[C@@H]2CCC(=O)[C@@]2(C)C[C@H]1OC(C)=O | PIM2 (Homo sapiens, UniProt Q9P1W9) | enzyme activity, inhibitor |  | 0.5 µM | baseline: control | remaining activity | 60.6%

Repeated from above (study 2):
Change | phosphate dissociation constant [µM]
K241V | 618
L221V | 585
G323V | 627
